Experimental data from different studies.
Compare with care: the assays were run in different laboratories. Numbers after ± are the reported error.
Cell line: HCT-116

COc1ccc(C2=Nn3c(NN=C4C(=O)N(C)c5ccc(Br)cc54)nnc3SC2)cc1 — inhibition (cell growth or viability, SRB; 10 µM): 18%
CC1CCCN(CCCNC(=O)C2=Cc3sc4c(c3CS2)CCCC4)C1 (stereo not shown) — uncleaved SREBP2 level (immunoblot; 20 µM): no effect
[Cl][Au]1[P](c2ccccc2)(c2ccccc2)C[P](c2ccccc2)(c2ccccc2)[Au]([Cl])[P](c2ccccc2)(c2ccccc2)C[P]1(c1ccccc1)c1ccccc1 — IC75 (cell growth, trypan blue exclusion; 48 h, DMSO 1%): 1.9 ± 0.2 µM
CCN1CCN(Cc2ccc(Nc3ncc4c(n3)N(C)c3ccccc3C(=O)N4C)cc2C(F)(F)F)CC1 — EC50 (cell growth or viability, ATP luminescence; 96 h): 0.553 µM
COc1ccc(NC(=O)N/N=C2\CC3(CCN(C)CC3)Oc3ccccc32)cc1 — cell cycle distribution (PI staining, flow cytometry; concentration not given, %S): 42.7%
Cn1c(=O)c(C(=O)N/N=C/c2ccccc2/C=N/NC(=O)c2nc3ccccc3n(C)c2=O)nc2ccccc21 — inhibition (cell growth or viability, MTT; 10 µM): 63.8%
O=C(Cn1c(=O)c(Cc2ccccc2)nc2ccccc21)OCCNCCO — mRNA level (qRT-PCR, measured: HIF-1α; concentration not given, 72 h; relative to: untreated): 0.273 ± 0.002 fold
CC12COC(c3ccccc3)OC1CCC1(C)C(C=CC3=CCOC3=O)C(CO)=CCC21 (stereo not shown) — inhibition (cell growth or viability, MTT; 20 µM, 48 h): 34.7%
NS(=O)(=O)c1ccc(-n2cc(Cn3c(=O)c(Cc4ccccc4)nc4ccccc43)nn2)cc1 — mRNA level (qRT-PCR, measured: HIF-1α; concentration not given, 72 h; relative to: untreated): 0.31 ± 0.002 fold
COCCSc1nc(N)c2c(F)c(C#N)c(F)c(Cl)c2n1 — cells in S phase (DAPI staining imaging; 1.02 µM, 24 h): 7.55%
COc1cc(CNC(=O)C[C@H](C)CCC=C(C)C)ccc1OCc1cn(-c2ccc(C#N)cc2)nn1 — growth percent (SRB; 10 µM, 48 h): 29.4%
COC(=O)N[C@H]1CC[C@@H](Nc2cc(NCc3ccccc3F)n3ncc(C(C)C)c3n2)CC1 — GI50 (cell growth or viability, SRB): 3.2 µM
COc1cc(CNC(=O)C[C@H](C)CCC=C(C)C)ccc1OCc1cn(-c2ccc(Br)cc2)nn1 — growth percent (SRB; 10 µM, 48 h): 41.9%
N=C(N)NCCC[C@@H](N)C(=O)N[C@@H](CCCNC(=N)N)C(=O)N[C@@H](Cc1c(F)c(F)c(F)c(F)c1F)C(=O)N[C@@H](CCCNC(=N)N)C(=O)N[C@@H]1CSCc2ccccc2CSC[C@@H](C(=O)N[C@H](CCCNC(=N)N)C(=O)N[C@@H](CC2CCCCC2)C(=O)N[C@@H](CCCNC(=N)N)C(=O)N2Cc3ccccc3C2C(N)=O)NC(=O)[C@H](Cc2cccc3ccccc23)NC(=O)[C@H](Cc2ccc(O)cc2)NC1=O (stereo partly shown) — EC50: 11.2 ± 1.2 µM
CC(C)(C)CC(C)(C)Nc1c(-c2ccc3c(c2)OCO3)nc2cnccn12 — cell migration (scratch; 25 µM, 24 h; relative to: untreated): 34%
COc1cc(CNC(=O)C[C@H](C)CCC=C(C)C)ccc1OCc1cn(-c2ccc(Cl)c(Cl)c2)nn1 — growth percent (SRB; 10 µM, 48 h): 29.8%
O=C(COc1ccc(/C=N/Nc2nc(-c3ccc(Br)cc3)cs2)cc1)N1CCN(C(=O)COc2ccc(/C=N/Nc3nc(-c4ccc(Br)cc4)cs3)cc2)CC1 — inhibition (cell growth or viability, SRB; 100 µM, 48 h): 74.8%
O=C(CCc1nc2cc(Cl)ccc2[nH]c1=O)Nc1ccc(O)cc1 — selectivity index (MTT; relative to: WI-38 IC50 over HCT-116 IC50): 20
O=C(Cn1c(=O)c(Cc2ccccc2)nc2ccccc21)NN1C(=O)c2ccccc2C1=O — mRNA level (qRT-PCR, measured: BCL-2; concentration not given, 72 h; relative to: untreated): 0.561 ± 0.032 fold
COc1cc(CNC(=O)C[C@H](C)CCC=C(C)C)ccc1OCc1cn(-c2cccc([N+](=O)[O-])c2)nn1 — growth percent (SRB; 10 µM, 48 h): 18.6%
Cc1ccc(C(C)C)cc1.[Au][S]C1=NCCS1.[Cl][Ru][Cl].c1ccc(P(CP(c2ccccc2)c2ccccc2)c2ccccc2)cc1 — IC75 (cell growth, trypan blue exclusion; 48 h, DMSO 1%): 12.3 ± 0.2 µM
CSc1nc(Nc2ccc(/C(C)=N/NC(=O)c3ccc([N+](=O)[O-])cc3[N+](=O)[O-])cc2)c(C#N)c(-c2ccccc2)n1 — late apoptotic cells (annexin V-FITC/PI flow cytometry; 1.14 µM, 24 h): 15.7%
CCOP(=O)(OCC)OCCCCOC(=O)C(C)c1ccc(CC(C)C)cc1 (stereo not shown) — nuclear p65 level (western blot; concentration not given): inhibited
CCOC(=O)c1ccc(-n2cc(Cn3c(=O)c(Cc4ccccc4)nc4ccccc43)nn2)cc1 — selectivity index (MTT; relative to: HCT-116 over normal colonocytes): 0.423
COc1cc2c(Oc3ccc(Nc4nn(C)cc4C(=O)NC4CCCCC4)cc3F)ccnc2cc1OCCCCCCC(=O)NO — inhibition (cell growth or viability, MTT; 0.7 µM): > 90%
CC(Cc1ccc(Cl)cc1)=C(c1ccc(Cl)cc1)c1ccc(OCCN(C)C)cc1 — GI50 (cell growth or viability, SRB): 3.03 µM
C=CCSc1nc(N)c2c(F)c(C#N)c(F)c(Cl)c2n1 — cells in S phase (DAPI staining imaging; 1.02 µM, 24 h): 8.33%
COC(=O)CCNC(=O)CNC(=O)CCn1nc(Cc2ccccc2)c2ccccc2c1=O — S phase cells (concentration not given): 38.3%

Repeated from above:
O=C(Cn1c(=O)c(Cc2ccccc2)nc2ccccc21)OCCNCCO — mRNA level (qRT-PCR, measured: HIF-1α; concentration not given, 72 h; relative to: untreated): 0.273 ± 0.002 fold
CC12COC(c3ccccc3)OC1CCC1(C)C(C=CC3=CCOC3=O)C(CO)=CCC21 (stereo not shown) — inhibition (cell growth or viability, MTT; 20 µM, 48 h): 34.7%
NS(=O)(=O)c1ccc(-n2cc(Cn3c(=O)c(Cc4ccccc4)nc4ccccc43)nn2)cc1 — mRNA level (qRT-PCR, measured: HIF-1α; concentration not given, 72 h; relative to: untreated): 0.31 ± 0.002 fold
COCCSc1nc(N)c2c(F)c(C#N)c(F)c(Cl)c2n1 — cells in S phase (DAPI staining imaging; 1.02 µM, 24 h): 7.55%
